Experimental data gathered from unrelated publications.
Compare with care: the assays were run in different laboratories.
Target: Rhodopsin kinase GRK7 (GRK7, Homo sapiens, UniProt Q8WTQ7)

Cc1ccc(-c2c(/C=C(\C#N)C(=O)NC(C)C)n(CCCO)c3ncnc(N)c23)cc1 — remaining binding (cell-free assay, competition with immobilised ligand; 1 µM): 100%
COc1c(Cl)cccc1Nc1c(-c2ccncc2C#C[C@@]2(C)CCCN2C(=O)/C=C/CN(C)C)[nH]c2c1C(=O)NCC2 — remaining binding (binding, competition with immobilised ligand; 3 µM): 93%
NC(=O)C[C@H]1CCc2sc3ncnc(O[C@H]4CC[C@H](N5CCOCC5)CC4)c3c21 — inhibition (enzyme activity, inhibitor; 10 µM): 1%
Cc1cccc(O[C@H]2CCC[C@@H](C(C)CNCc3ccncc3)C2)c1 (relative stereo) — inhibition (enzyme activity, inhibitor; 10 µM): -6%
C=CC(=O)N1CCCC(n2c(=O)c3ncccc3n(Cc3ccc(Oc4ccccc4)cc3)c2=O)C1 (centres unmarked) — remaining binding (cell-free assay, competition with immobilised ligand; 1 µM): 100%
Cc1nc2c(F)cc(-c3nc(Nc4ccc(CNC(=O)CCCCCCC(=O)NO)cc4)ncc3F)cc2n1C(C)C — inhibition (enzyme activity, inhibitor; 1 µM): 19%
CN1CC[C@@H](COc2cnc(C#N)cc2-c2ccn3nc(NC(=O)C4CC4)cc3c2)C1 — inhibition (enzyme activity, inhibitor; 1 µM): 1%
CCn1cc(C(=O)O)c(=O)c2c(N)c(F)c(NC3CCCCC3)cc21 — inhibition (kinase activity; 0.1 µM, together with: ATP at Km): 36.5%
CCN1CCN(Cc2ccc(C(=O)Nc3ccc(C)c(NCc4cnc5[nH]ccc5c4OC)c3)cc2C(F)(F)F)CC1 — remaining binding (binding, competition with immobilised ligand; 1 µM): 98%
COc1cc(Nc2nc(C)cc(-c3cnn4nc(OC)ccc34)n2)cc(C(F)(F)F)c1 — remaining activity (inhibitor; 1 µM; reference: control): 83%
CNC1C[S+]2CC[S+]3CC[S+](C1)[Ru-4]321([N]=C=S)[n]2c3ccc(OC)cc3c3c4c(c5cc(F)c[n+]1c5c32)C(=O)NC4=O (centres unmarked) — remaining binding (KinomeScan; 0.1 µM; reference: untreated): 8.4%
COc1ccc(NC(=O)Nc2ccc3c(c2)C(=O)N(C(C)CO)CC(C)C(CN(C)Cc2ccc4c(c2)OCO4)O3)cc1 (centres unmarked) — remaining activity (kinase activity, KinaseProfiler; 0.03 µM, species human; reference: control): 92%
CNC(=O)C1CCN(c2cc(C)c(F)cc2NC(=O)c2ccc(-c3cc(O)ccc3C)c(C)c2)CC1 — remaining binding (binding, competition with immobilised ligand; 1 µM): 100%
CC(C)=CC1OC(C)(C)C2C=C3C(=O)C(Cl)=CC(O)C3C3C(O)C4OC4C(=O)C132 (centres unmarked) — remaining binding (cell-free assay, competition with immobilised ligand; 10 µM): 82%

Some of these lines once more:
CN1CC[C@@H](COc2cnc(C#N)cc2-c2ccn3nc(NC(=O)C4CC4)cc3c2)C1 — inhibition (enzyme activity, inhibitor; 1 µM): 1%
